Measurements from different studies.
Protocols differ between the studies behind these lines. ± gives the spread as reported.
Organism: Escherichia coli

N=C(N)NCCC[C@H](NC(=O)[C@H](Cc1c[nH]cn1)NC(=O)[C@@H]1CCCN1C(=O)[C@H](CS)NC(=O)[C@@H]1CCCN1)C(=O)N[C@@H](CS)C(=O)O  MIC (broth microdilution; MTCC 443; 37 °C): 50 µg/mL
CC(C)C[C@H](NC(=O)[C@H](C)NC(=O)[C@H](CC(C)C)NC(=O)[C@H](Cc1c[nH]cn1)NC(=O)[C@H](CC(C)C)NC(=O)[C@@H](NC(=O)[C@@H](N)CO)[C@@H](C)O)C(=O)N[C@@H](CCCNC(=N)N)C(=O)N[C@@H](CC(C)C)C(=O)N[C@@H](CCCNC(=N)N)C(=O)NCC(=O)NCC(=O)O  MIC (DH5α; 37 °C, ≥90% viability decrease): > 100 µM
CC[C@H](C)[C@H](N)C(=O)N[C@H](C(=O)N[C@@H](CCCCN)C(=O)N[C@@H](CCCNC(=N)N)C(=O)N[C@H](C(=O)N[C@@H](CC(C)C)C(=O)N[C@H](C(=O)N[C@@H](CCC(N)=O)C(=O)N[C@@H](CC(C)C)C(=O)N[C@@H](CCCCN)C(=O)N[C@@H](CCCCN)C(=O)N[C@@H](CC(C)C)C(=O)N[C@@H](CC(C)C)C(N)=O)[C@@H](C)CC)[C@@H](C)CC)[C@@H](C)CC  MIC (ATCC 25922; 1 h, 37 °C, dividing cells in LB): 25 to 50 µg/mL
vasoactive intestinal peptide  MIC (ATCC 25922): 6.9 µM
CC(C)C[C@H](NC(=O)[C@H](CCCNC(=N)N)NC(=O)[C@@H]1CCCN1C(=O)[C@H](Cc1c[nH]cn1)NC(=O)[C@@H]1CCCN1C(=O)[C@@H]1CCCN1C(=O)[C@H](CCCNC(=N)N)NC(=O)[C@@H]1CCCN1C(=O)[C@H](CCC(N)=O)NC(=O)[C@@H]1CCCN1C(=O)[C@H](CCCCN)NC(=O)[C@H](Cc1ccc(O)cc1)NC(=O)[C@@H](NC(=O)[C@@H]1CCCN1C(=O)[C@H](CCCCN)NC(=O)[C@H](CC(N)=O)NC(=O)[C@H](CC(N)=O)NC(=O)CN)C(C)C)C(=O)O  MIC (JW0368 ΔsbmA; 18 h, 37 °C, 12.5% Mueller-Hinton broth): 0.096 ± 0.023 µM
CC[C@H](C)[C@H](NC(=O)[C@H](CC(C)C)NC(=O)[C@H](C)NC(=O)[C@@H]1CCCN1C(=O)[C@H](CCCNC(=N)N)NC(=O)[C@@H](N)Cc1ccccc1)C(=O)N[C@H](C(=O)N[C@@H](CCCNC(=N)N)C(=O)N[C@H](C(=O)N[C@@H](CCCCN)C(=O)NCC(=O)N[C@H](C(=O)N[C@@H](CCCNC(=N)N)C(=O)N[C@@H](CC(C)C)C(=O)O)[C@@H](C)O)[C@@H](C)O)C(C)C  MIC (broth microdilution; K12; 37 °C): > 30 µM
CC[C@H](C)[C@H](NC(=O)[C@H](CC(=O)O)NC(=O)[C@H](Cc1ccccc1)NC(=O)[C@H](CC(C)C)NC(=O)CN)C(=O)N[C@H](C(=O)N[C@@H](CCCCN)C(=O)N[C@@H](CCCCN)C(=O)N[C@H](C(=O)N[C@H](C(=O)NCC(=O)N[C@@H](C)C(=O)N[C@@H](CC(C)C)C(=O)N[C@@H](CCCCN)C(N)=O)C(C)C)C(C)C)C(C)C  MIC (ATCC 25922, CAMHB; 18 h, 37 °C): > 22 µM
CC[C@H](C)[C@H](NC(=O)[C@@H]1CCCN1C(=O)[C@H](CCCCN)NC(=O)[C@@H]1CCCN1C(=O)[C@@H]1CCCN1C(=O)[C@@H](NC(=O)[C@@H]1CCCN1C(=O)[C@H](CCCNC(=N)N)NC(=O)[C@@H]1CCCN1C(=O)[C@H](CCCCN)NC(=O)[C@H](Cc1ccc(O)cc1)NC(=O)[C@H](CO)NC(=O)CNC(=O)[C@H](CCCCN)NC(=O)[C@H](CC(=O)O)NC(=O)[C@@H](N)C(C)C)[C@@H](C)O)C(=O)N[C@@H](Cc1ccc(O)cc1)C(=O)N[C@@H](CC(N)=O)C(=O)N[C@@H](CCCNC(=N)N)C(=O)N[C@@H](CC(N)=O)C(=O)O  MIC (JW0368 ΔsbmA; 18 h, 37 °C, 12.5% Mueller-Hinton broth): 0.834 ± 0.382 µM
CC[C@H](C)[C@H](NC(=O)[C@H](Cc1ccccc1)NC(=O)CN)C(=O)N[C@@H](CCCCN)C(=O)N[C@H](C(=O)N[C@H](C(=O)N[C@@H](CCCNC(=N)N)C(=O)N[C@@H](CCCCN)C(=O)N[C@@H](CC(C)C)C(=O)N[C@@H](CC(C)C)C(=O)N[C@@H](CCCNC(=N)N)C(=O)N[C@@H](CC(C)C)C(=O)N[C@@H](Cc1ccccc1)C(N)=O)C(C)C)[C@@H](C)CC  MIC (ATCC 25922; 1 h, 37 °C, dividing cells in LB): 6.25 µg/mL
CC[C@H](C)[C@H](NC(=O)[C@@H]1CCCN1C(=O)[C@H](CCCNC(=N)N)NC(=O)[C@@H]1CCCN1C(=O)[C@@H]1CCCN1C(=O)[C@@H](NC(=O)[C@@H]1CCCN1C(=O)[C@H](CCCNC(=N)N)NC(=O)[C@@H]1CCCN1C(=O)[C@H](CC(C)C)NC(=O)[C@H](Cc1ccc(O)cc1)NC(=O)[C@H](CO)NC(=O)CNC(=O)[C@H](CCCCN)NC(=O)[C@H](CC(=O)O)NC(=O)[C@@H](N)C(C)C)[C@@H](C)O)C(=O)N[C@@H](Cc1ccc(O)cc1)C(=O)N[C@@H](CC(N)=O)C(=O)N[C@@H](CCCNC(=N)N)C(=O)N[C@@H](CC(N)=O)C(=O)O  MIC (broth microdilution; BW25113, 5% M9 medium): 0.3 ± 0.07 µM
CC(C)C[C@H](NC(=O)[C@H](Cc1c[nH]c2ccccc12)NC(=O)[C@H](CCCNC(=N)N)NC(=O)[C@H](CC(C)C)NC(=O)[C@H](CCCNC(=N)N)NC(=O)[C@H](Cc1c[nH]c2ccccc12)NC(=O)[C@H](Cc1c[nH]c2ccccc12)NC(=O)[C@H](CC(C)C)NC(=O)[C@H](CCCCN)NC(=O)[C@H](Cc1c[nH]c2ccccc12)NC(=O)[C@@H](NC(=O)[C@@H](N)CC(C)C)C(C)C)C(=O)N[C@@H](CCCCN)C(N)=O  MIC (broth microdilution; ATCC 25922, LB medium; 16 to 20 h, 37 °C): 100 µg/mL
CC[C@H](C)[C@H](NC(=O)[C@H](C)NC(=O)[C@H](CCCCN)NC(=O)[C@@H](NC(=O)[C@@H]1CCCN1C(=O)[C@@H](NC(=O)[C@H](CCCCN)NC(=O)[C@H](C)N)[C@@H](C)CC)[C@@H](C)CC)C(=O)N[C@@H](CCCCN)C(=O)N[C@H](C(=O)N[C@H](C(=O)NCC(=O)N[C@@H](CCCCN)C(=O)N[C@@H](C)C(=O)N[C@H](C(=O)NCC(=O)N[C@@H](CCCCN)C(=O)NCC(=O)N[C@@H](CC(C)C)C(=O)N[C@@H](CCCNC(=N)N)C(=O)N[C@@H](C)C(=O)N[C@H](C(=O)N[C@@H](CC(N)=O)C(=O)N[C@H](C(=O)N[C@@H](C)C(=O)N[C@@H](CO)C(=O)N[C@H](C(=O)N[C@@H](C)C(=O)N[C@@H](CC(N)=O)C(=O)N[C@@H](CC(=O)O)C(=O)N[C@H](C(=O)N[C@@H](Cc1ccccc1)C(=O)N[C@@H](CC(N)=O)C(=O)N[C@@H](Cc1ccccc1)C(=O)N[C@@H](CC(C)C)C(=O)N[C@@H](CCCCN)C(=O)N1CCC[C@H]1C(=O)N[C@@H](CCCCN)C(=O)N[C@@H](CCCCN)C(=O)N[C@@H](CCCNC(=N)N)C(=O)N[C@@H](CCCCN)C(=O)N[C@@H](Cc1c[nH]cn1)C(=O)O)C(C)C)[C@@H](C)O)[C@@H](C)CC)[C@@H](C)CC)C(C)C)C(C)C)[C@@H](C)O  MIC (bacterial growth; DH5α; 37 °C): 1 µM
CC[C@H](C)[C@H](NC(=O)[C@H](CCCNC(=N)N)NC(=O)[C@@H](N)CCCNC(=N)N)C(=O)N[C@@H](CCCNC(=N)N)C(=O)N1CCC[C@H]1C(=O)N[C@@H](CCCNC(=N)N)C(=O)N1CCC[C@H]1C(=O)N1CCC[C@H]1C(=O)N[C@@H](CCCNC(=N)N)C(=O)N[C@@H](CC(C)C)C(=O)N1CCC[C@H]1C(=O)N[C@@H](CCCNC(=N)N)C(=O)N1CCC[C@H]1C(=O)N[C@@H](CCCNC(=N)N)C(=O)N1CCC[C@H]1C(=O)N[C@@H](CCCNC(=N)N)C(=O)N1CCC[C@H]1C(=O)N[C@@H](CC(C)C)C(=O)N1CCC[C@H]1C(=O)N[C@@H](Cc1ccccc1)C(=O)N1CCC[C@H]1C(=O)N[C@@H](CCCNC(=N)N)C(=O)N1CCC[C@H]1C(=O)NCC(=O)N1CCC[C@H]1C(=O)N[C@@H](CCCNC(=N)N)C(=O)N1CCC[C@H]1C(=O)N[C@H](C(=O)N1CCC[C@H]1C(=O)N[C@@H](CCCNC(=N)N)C(=O)N1CCC[C@H]1C(=O)N[C@@H](CC(C)C)C(=O)N1CCC[C@H]1C(=O)N[C@@H](Cc1ccccc1)C(=O)N1CCC[C@H]1C(=O)O)[C@@H](C)CC  MIC (alamarBlue; SQ110; overnight, 37 °C): 1.5 µM
CC[C@H](C)[C@H](NC(=O)[C@H](CCCNC(=N)N)NC(=O)[C@@H](N)CCCNC(=N)N)C(=O)N[C@@H](CCCNC(=N)N)C(=O)N[C@@H](CCCCN)C(=O)N[C@@H](CCCNC(=N)N)C(=O)N1CCC[C@H]1C(=O)N1CCC[C@H]1C(=O)N[C@@H](CCCNC(=N)N)C(=O)N[C@@H](CC(C)C)C(=O)N1CCC[C@H]1C(=O)N[C@@H](CCCNC(=N)N)C(=O)N1CCC[C@H]1C(=O)N[C@@H](CCCNC(=N)N)C(=O)N1CCC[C@H]1C(=O)N[C@@H](CCCCN)C(=O)O  MIC (broth microdilution; BW25113 parental, Mueller-Hinton broth; 18 h, 37 °C): 0.078 ± 0.032 µM
CC[C@H](C)[C@H](NC(=O)[C@H](C)NC(=O)[C@H](CCCNC(=N)N)NC(=O)CNC(=O)[C@H](C)NC(=O)[C@H](CCC(=O)O)NC(=O)CNC(=O)[C@H](CC(=O)O)NC(=O)[C@H](Cc1ccc(O)cc1)NC(=O)[C@H](Cc1ccccc1)NC(=O)CNC(=O)[C@H](CCCCN)NC(=O)[C@H](CCCNC(=N)N)NC(=O)[C@H](CC(C)C)NC(=O)[C@H](CO)NC(=O)[C@H](CO)NC(=O)[C@H](Cc1c[nH]c2ccccc12)NC(=O)[C@H](Cc1ccccc1)NC(=O)[C@H](CC(N)=O)NC(=O)[C@H](CCCCN)NC(=O)[C@H](Cc1c[nH]c2ccccc12)NC(=O)[C@H](C)NC(=O)CN)C(=O)N[C@@H](CCCNC(=N)N)C(=O)N[C@@H](CCCNC(=N)N)C(=O)O  MIC (broth microdilution; K12; 37 °C): > 38.9 µM
CC(C)C[C@H](NC(=O)[C@H](CCCCN)NC(=O)[C@H](Cc1c[nH]c2ccccc12)NC(=O)[C@H](CCCCN)NC(=O)[C@H](CC(C)C)NC(=O)[C@H](Cc1c[nH]c2ccccc12)NC(=O)[C@H](CC(C)C)NC(=O)[C@H](CCCCN)NC(=O)[C@H](CC(C)C)NC(=O)[C@H](CCCCN)NC(=O)[C@H](CCCCN)NC(=O)[C@@H](N)Cc1c[nH]c2ccccc12)C(=O)N[C@@H](Cc1c[nH]c2ccccc12)C(N)=O  MIC (ATCC 25922; 1 h, 37 °C, non-dividing cells in PBS): 1.56 µg/mL
CCN1CCN(C(=O)N[C@@H](C(=O)N[C@@H]2C(=O)N3[C@@H]2SC(C)(C)[C@@H]3C(=O)O)c2ccccc2)C(=O)C1=O  MIC (broth microdilution; BW25113, Mueller-Hinton broth): 12.5 µg/mL
CC[C@H](C)[C@H](NC(=O)[C@H](C)NC(=O)[C@@H]1CCCN1C(=O)[C@@H](NC(=O)[C@@H](NC(=O)[C@H](Cc1c[nH]cn1)NC(=O)[C@H](CO)NC(=O)[C@@H](NC(=O)[C@@H](NC(=O)[C@H](CO)NC(=O)CNC(=O)[C@H](CC(C)C)NC(=O)[C@H](CC(C)C)NC(=O)CNC(=O)[C@H](CC(C)C)NC(=O)[C@H](CC(C)C)NC(=O)CN)C(C)C)C(C)C)C(C)C)C(C)C)C(=O)N[C@H](C(=O)NCC(=O)N[C@@H](Cc1c[nH]cn1)C(=O)N[C@@H](Cc1ccccc1)C(N)=O)C(C)C  MIC (broth microdilution; K12; 37 °C): > 100 µM

A few entries again:
CC[C@H](C)[C@H](NC(=O)[C@H](CC(C)C)NC(=O)[C@H](C)NC(=O)[C@@H]1CCCN1C(=O)[C@H](CCCNC(=N)N)NC(=O)[C@@H](N)Cc1ccccc1)C(=O)N[C@H](C(=O)N[C@@H](CCCNC(=N)N)C(=O)N[C@H](C(=O)N[C@@H](CCCCN)C(=O)NCC(=O)N[C@H](C(=O)N[C@@H](CCCNC(=N)N)C(=O)N[C@@H](CC(C)C)C(=O)O)[C@@H](C)O)[C@@H](C)O)C(C)C  MIC (broth microdilution; K12; 37 °C): > 30 µM
